Measured values gathered from unrelated publications.
“And” joins repeats or separate records; there may be more than shown.
Sequence of UniProt P41146 (whole entry, looked up): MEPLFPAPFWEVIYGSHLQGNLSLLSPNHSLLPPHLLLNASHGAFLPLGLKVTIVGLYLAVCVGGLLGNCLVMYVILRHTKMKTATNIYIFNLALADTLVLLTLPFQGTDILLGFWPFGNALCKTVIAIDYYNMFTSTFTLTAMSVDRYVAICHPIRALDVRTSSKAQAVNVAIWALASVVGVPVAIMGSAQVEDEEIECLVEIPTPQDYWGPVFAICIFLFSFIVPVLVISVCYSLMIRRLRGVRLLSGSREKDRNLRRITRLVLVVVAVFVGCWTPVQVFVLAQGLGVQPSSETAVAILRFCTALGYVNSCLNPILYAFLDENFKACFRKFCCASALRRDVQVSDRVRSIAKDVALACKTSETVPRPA
Sequence of UniProt P34972 (whole entry, looked up): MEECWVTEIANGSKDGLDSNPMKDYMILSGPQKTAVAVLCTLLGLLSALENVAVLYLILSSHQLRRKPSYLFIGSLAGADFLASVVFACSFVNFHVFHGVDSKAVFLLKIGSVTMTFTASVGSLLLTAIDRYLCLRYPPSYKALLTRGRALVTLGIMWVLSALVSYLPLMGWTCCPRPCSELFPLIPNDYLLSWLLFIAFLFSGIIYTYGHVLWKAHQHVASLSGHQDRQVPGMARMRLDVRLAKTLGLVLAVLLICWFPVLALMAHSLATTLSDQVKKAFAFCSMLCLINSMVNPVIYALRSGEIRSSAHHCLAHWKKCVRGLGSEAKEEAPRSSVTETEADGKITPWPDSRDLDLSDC
Sequence of UniProt P41145 (whole entry, looked up): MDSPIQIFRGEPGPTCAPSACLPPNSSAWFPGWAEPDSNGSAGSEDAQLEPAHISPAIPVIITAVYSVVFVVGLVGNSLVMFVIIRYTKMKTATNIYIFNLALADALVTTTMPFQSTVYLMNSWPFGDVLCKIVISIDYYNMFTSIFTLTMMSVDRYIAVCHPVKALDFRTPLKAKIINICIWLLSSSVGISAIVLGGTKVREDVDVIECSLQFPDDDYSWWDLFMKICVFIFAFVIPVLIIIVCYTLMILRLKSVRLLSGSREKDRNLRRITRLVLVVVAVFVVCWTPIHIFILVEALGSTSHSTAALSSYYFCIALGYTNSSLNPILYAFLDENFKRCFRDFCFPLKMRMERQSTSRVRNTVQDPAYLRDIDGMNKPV
Sequence of UniProt Q0P543 (whole entry, looked up): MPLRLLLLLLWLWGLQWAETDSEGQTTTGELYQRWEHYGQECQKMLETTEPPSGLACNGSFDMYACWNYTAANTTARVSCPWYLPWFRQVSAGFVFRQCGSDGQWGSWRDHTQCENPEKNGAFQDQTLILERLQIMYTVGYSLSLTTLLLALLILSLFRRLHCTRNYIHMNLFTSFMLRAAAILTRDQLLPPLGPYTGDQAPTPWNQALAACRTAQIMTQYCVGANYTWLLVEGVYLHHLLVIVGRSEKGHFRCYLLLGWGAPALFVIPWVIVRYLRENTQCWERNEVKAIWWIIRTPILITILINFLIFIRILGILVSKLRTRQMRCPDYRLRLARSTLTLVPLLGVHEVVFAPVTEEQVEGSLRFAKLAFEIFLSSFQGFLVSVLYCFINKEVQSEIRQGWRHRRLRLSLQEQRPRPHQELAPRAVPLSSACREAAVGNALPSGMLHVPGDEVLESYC
Sequence of UniProt Q15858 (whole entry, looked up): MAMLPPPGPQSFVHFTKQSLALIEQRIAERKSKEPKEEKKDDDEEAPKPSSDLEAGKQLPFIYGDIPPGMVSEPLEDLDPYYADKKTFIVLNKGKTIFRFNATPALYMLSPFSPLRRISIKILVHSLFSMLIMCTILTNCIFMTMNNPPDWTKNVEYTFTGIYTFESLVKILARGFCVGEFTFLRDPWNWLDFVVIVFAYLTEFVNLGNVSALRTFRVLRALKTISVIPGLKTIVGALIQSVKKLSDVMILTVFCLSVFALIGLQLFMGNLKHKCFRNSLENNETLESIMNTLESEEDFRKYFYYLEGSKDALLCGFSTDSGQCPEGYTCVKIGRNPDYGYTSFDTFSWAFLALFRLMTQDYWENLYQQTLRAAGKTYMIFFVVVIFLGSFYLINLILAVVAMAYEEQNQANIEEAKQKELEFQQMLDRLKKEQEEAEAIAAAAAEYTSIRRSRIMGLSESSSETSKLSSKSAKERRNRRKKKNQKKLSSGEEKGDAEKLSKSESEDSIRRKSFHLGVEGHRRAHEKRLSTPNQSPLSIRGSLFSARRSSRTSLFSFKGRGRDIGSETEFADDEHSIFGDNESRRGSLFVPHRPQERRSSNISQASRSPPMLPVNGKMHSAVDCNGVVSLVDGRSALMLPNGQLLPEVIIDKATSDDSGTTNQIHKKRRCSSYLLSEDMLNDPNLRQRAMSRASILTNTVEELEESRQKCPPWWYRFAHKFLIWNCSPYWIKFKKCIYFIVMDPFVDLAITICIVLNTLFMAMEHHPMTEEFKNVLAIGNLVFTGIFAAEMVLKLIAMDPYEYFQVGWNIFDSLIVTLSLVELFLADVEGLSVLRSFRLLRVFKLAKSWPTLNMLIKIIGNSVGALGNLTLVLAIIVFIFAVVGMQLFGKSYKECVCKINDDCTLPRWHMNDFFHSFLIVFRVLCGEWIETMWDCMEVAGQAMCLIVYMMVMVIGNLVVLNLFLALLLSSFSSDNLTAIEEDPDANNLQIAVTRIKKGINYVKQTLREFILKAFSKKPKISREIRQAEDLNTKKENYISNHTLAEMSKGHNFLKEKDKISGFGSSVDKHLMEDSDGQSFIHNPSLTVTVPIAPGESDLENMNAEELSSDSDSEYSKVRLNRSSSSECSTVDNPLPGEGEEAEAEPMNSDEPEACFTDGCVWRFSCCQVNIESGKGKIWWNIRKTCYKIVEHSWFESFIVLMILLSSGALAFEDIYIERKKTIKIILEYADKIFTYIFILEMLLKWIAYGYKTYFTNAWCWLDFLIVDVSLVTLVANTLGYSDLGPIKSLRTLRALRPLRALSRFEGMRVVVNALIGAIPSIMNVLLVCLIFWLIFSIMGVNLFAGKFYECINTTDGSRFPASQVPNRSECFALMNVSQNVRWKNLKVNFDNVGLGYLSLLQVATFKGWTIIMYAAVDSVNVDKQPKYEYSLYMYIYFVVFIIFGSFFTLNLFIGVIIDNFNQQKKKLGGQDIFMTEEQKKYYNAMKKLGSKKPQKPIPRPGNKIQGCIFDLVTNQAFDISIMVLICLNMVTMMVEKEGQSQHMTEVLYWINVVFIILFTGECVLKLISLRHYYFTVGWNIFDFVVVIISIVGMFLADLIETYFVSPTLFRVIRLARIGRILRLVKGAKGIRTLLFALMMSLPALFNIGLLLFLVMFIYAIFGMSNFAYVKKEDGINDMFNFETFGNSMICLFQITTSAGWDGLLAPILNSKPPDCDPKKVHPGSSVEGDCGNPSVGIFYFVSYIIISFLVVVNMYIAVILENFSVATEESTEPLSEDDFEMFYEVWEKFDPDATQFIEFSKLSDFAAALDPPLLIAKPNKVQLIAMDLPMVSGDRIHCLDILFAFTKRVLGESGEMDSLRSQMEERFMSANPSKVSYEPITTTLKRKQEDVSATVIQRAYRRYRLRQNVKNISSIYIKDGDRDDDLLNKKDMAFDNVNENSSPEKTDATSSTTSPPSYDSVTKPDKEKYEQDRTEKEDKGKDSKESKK
Sequence of UniProt P43220 (whole entry, looked up): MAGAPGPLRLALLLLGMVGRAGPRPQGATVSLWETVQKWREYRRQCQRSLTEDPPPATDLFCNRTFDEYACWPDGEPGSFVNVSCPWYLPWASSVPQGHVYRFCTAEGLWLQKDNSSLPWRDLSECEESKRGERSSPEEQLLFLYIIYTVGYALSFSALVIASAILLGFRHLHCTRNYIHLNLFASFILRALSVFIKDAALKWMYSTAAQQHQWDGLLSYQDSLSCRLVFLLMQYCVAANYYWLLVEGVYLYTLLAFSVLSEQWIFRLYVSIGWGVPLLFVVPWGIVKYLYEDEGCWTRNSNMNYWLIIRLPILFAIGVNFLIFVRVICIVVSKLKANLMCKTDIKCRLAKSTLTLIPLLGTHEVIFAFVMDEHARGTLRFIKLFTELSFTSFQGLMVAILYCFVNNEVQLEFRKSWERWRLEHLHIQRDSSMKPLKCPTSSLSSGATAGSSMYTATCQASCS

CC[C@H](C)[C@H](NC(=O)[C@H](CCCN)NC(=O)[C@H](CC(=O)O)NC(=O)[C@H](CC(C)C)NC(=O)C(C)(CC(C)C)NC(=O)[C@@H](NC(=O)[C@H](CO)NC(=O)[C@H](Cc1ccc(O)cc1)NC(=O)[C@H](CC(=O)O)NC(=O)[C@H](CO)NC(=O)[C@@H](NC(=O)[C@H](Cc1ccccc1)NC(=O)[C@@H](NC(=O)CNC(=O)[C@H](CCC(=O)O)NC(=O)C(C)(C)NC(=O)[C@@H](N)Cc1ccc(O)cc1)[C@@H](C)O)[C@@H](C)CC)[C@@H](C)CC)C(=O)N[C@@H](Cc1c[nH]cn1)C(=O)N[C@@H](CCC(N)=O)C(=O)NC(C)(C)C(=O)N[C@@H](CC(=O)O)C(=O)N[C@@H](Cc1ccccc1)C(=O)N[C@H](C(=O)N[C@@H](CCC(=O)O)C(=O)N[C@@H](Cc1ccc(O)cc1)C(=O)N[C@@H](CCCCNC(=O)COCCOCCNC(=O)COCCOCCNC(=O)CC[C@H](NC(=O)CCCCCCCCCCCCCCCCCCC(=O)O)C(=O)O)C(=O)N[C@@H](CC(C)C)C(=O)N[C@@H](CCC(=O)O)C(=O)NCC(=O)NCC(=O)N1CCC[C@H]1C(=O)N[C@@H](CO)C(=O)N[C@@H](CO)C(=O)NCC(=O)N[C@@H](C)C(=O)N1CCC[C@H]1C(=O)N1CCC[C@H]1C(=O)N1CCC[C@H]1C(=O)N[C@@H](CO)C(N)=O)C(C)C (some centres unmarked) — EC50 (Gastric inhibitory polypeptide receptor (Mus musculus, UniProt Q0P543); cAMP, agonist): 1.45 nM
Cc1cc(O)cc(C)c1C[C@H](N)C(=O)NCC(=O)NCC(=O)N[C@@H](Cc1ccccc1)C(=O)N[C@H](C(=O)NCC(=O)N[C@@H](C)C(=O)N[C@@H](CCCNC(=N)N)C(=O)N[C@@H](CCCCN)C(=O)N[C@@H](CO)C(=O)N[C@@H](C)C(=O)N[C@@H](CCCNC(=N)N)C(=O)N[C@@H](CCCCN)C(N)=O)[C@@H](C)O — EC50 (Nociceptin receptor, with Gβ1 (OPRL1, Homo sapiens, UniProt P41146); G-protein interaction, agonist, BRET, item: Gβ1; HEK293 cell membranes; 15 min, room temperature): 0.38 nM
CCCCCCCCCCCCCCCC(=O)N[C@@H](CCC(=O)NCCCC[C@H](NC(=O)[C@H](CC(=O)O)NC(=O)[C@H](CO)NC(=O)[C@@H](NC(=O)[C@H](Cc1ccccc1)NC(=O)[C@@H](NC(=O)CNC(=O)[C@H](CCC(N)=O)NC(=O)C(C)(C)NC(=O)[C@@H](N)Cc1c[nH]cn1)[C@@H](C)O)[C@@H](C)O)C(=O)N[C@@H](CO)C(=O)N[C@@H](CCCCN)C(=O)N[C@@H](Cc1ccc(O)cc1)C(=O)N[C@@H](CC(C)C)C(=O)N[C@@H](CC(=O)O)C(=O)N[C@@H](CCC(=O)O)C(=O)N[C@@H](CCCNC(=N)N)C(=O)N[C@@H](C)C(=O)N[C@@H](C)C(=O)N[C@@H](CCC(N)=O)C(=O)N[C@@H](CC(=O)O)C(=O)N[C@@H](Cc1ccccc1)C(=O)N[C@H](C(=O)N[C@@H](CCC(N)=O)C(=O)N[C@@H](Cc1c[nH]c2ccccc12)C(=O)N[C@@H](CC(C)C)C(=O)N[C@@H](CC(C)C)C(=O)N[C@@H](CC(=O)O)C(=O)NCC(=O)NCC(=O)N1CCC[C@H]1C(=O)N[C@@H](CO)C(=O)N[C@@H](CO)C(=O)NCC(=O)N[C@@H](C)C(=O)N1CCC[C@H]1C(=O)N1CCC[C@H]1C(=O)N1CCC[C@H]1C(=O)N[C@@H](CO)C(N)=O)C(C)C)C(=O)O — EC50 (Glucagon-like peptide 1 receptor (GLP1R, Homo sapiens, UniProt P43220); reporter gene, agonist, CRE-luciferase reporter; BHK cells; 3 h, 37 °C, 0% HSA): 0.0013 nM
Cc1ccc(C)c(OCCn2cc(C(=O)O)c3ccccc32)c1 — EC50 (Ras-related C3 botulinum toxin substrate 1 (RAC1, Homo sapiens, UniProt P63000, Q61L); GTP binding, activator, flow cytometry bead; EDTA buffer, added: 100 nM BODIPY-GTP): 224 nM
CC[C@H](C)[C@@H]1NC(=O)[C@H]([C@@H](C)O)NC(=O)[C@H](CCC(=O)O)NC(=O)[C@H](CO)NC(=O)[C@H](Cc2ccc(O)cc2)NC(=O)[C@@H]2CSSC[C@@H]3NC(=O)[C@H]([C@@H](C)CC)NC(=O)[C@@H]4CCCN4C(=O)[C@H](Cc4c[nH]c5ccccc45)NC(=O)[C@H](CCC(=O)O)NC(=O)[C@@H]4CSSC[C@H](NC(=O)[C@H]([C@@H](C)O)NC(=O)[C@H](CCC(=O)O)NC(=O)CNC(=O)[C@H](CSSC[C@H](NC(=O)CNC1=O)C(=O)N[C@@H]([C@@H](C)O)C(=O)N4)NC(=O)[C@@H]1CCCN1C(=O)[C@H](CC(C)C)NC(=O)[C@@H]1CCCN1C(=O)[C@H](CC(=O)O)NC(=O)CNC(=O)[C@H](CC(N)=O)NC(=O)[C@H](CCCCN)NC(=O)[C@H]([C@@H](C)O)NC3=O)C(=O)N[C@@H](Cc1ccccc1)C(=O)N[C@@H]([C@@H](C)O)C(=O)NCC(=O)N[C@@H](CCCCN)C(=O)N2 — EC50 (Cannabinoid receptor 2 (CNR2, Homo sapiens, UniProt P34972); cAMP, agonist, TR-FRET): 8000 nM and 7800 nM
CC[C@H](C)[C@@H]1NC(=O)[C@H](CCCNC(=N)N)NC(=O)[C@H](Cc2ccccc2)NC(=O)[C@H](CC(C)C)NC(=O)[C@H](CO)NC(=O)[C@@H]2CSSC[C@@H]3NC(=O)[C@H]([C@@H](C)O)NC(=O)[C@H](CSSC[C@H](NC(=O)[C@H](CCCNC(=N)N)NC(=O)[C@@H]4CCCN4C(=O)[C@@H](N)CC(C)C)C(=O)N[C@@H](CC(=O)O)C(=O)N[C@@H](CO)C(=O)N4CCC[C@H]4C(=O)N[C@@H](Cc4ccccc4)C(=O)N2)NC(=O)[C@H](CCCCN)NC(=O)[C@H](CC(=O)O)NC(=O)CNC(=O)[C@H](CSSC[C@@H](C(=O)N[C@H](C(=O)N2CCC[C@H]2C(=O)N[C@@H](CC(=O)O)C(=O)N[C@H](C(=O)O)C(C)C)C(C)C)NC(=O)[C@H](CC(C)C)NC(=O)CNC(=O)[C@H](Cc2ccccc2)NC(=O)[C@H]([C@@H](C)CC)NC(=O)[C@@H]2CCCN2C(=O)[C@H](CC(C)C)NC(=O)[C@@H]2CCCN2C(=O)[C@H](C(C)C)NC3=O)NC(=O)[C@H](CC(C)C)NC(=O)CNC1=O — EC50 (Sodium channel protein type 9 subunit alpha (SCN9A, Homo sapiens, UniProt Q15858); delay of inactivation, automated patch clamp, item: sustained current relative to peak; TE-671 cells; 5 min per concentration, holding -90 mV, pulse to -20 mV): 57.5 nM
CC[C@H](C)[C@H](NC(=O)[C@H](CCCNC(=N)N)NC(=O)[C@H](CCCNC(=N)N)NC(=O)[C@H](CC(C)C)NC(=O)[C@H](Cc1ccccc1)NC(=O)CNC(=O)CNC(=O)[C@@H](N)Cc1ccc(O)cc1)C(=O)N[C@@H](CCCNC(=N)N)C(=O)N1CCC[C@H]1C(=O)O — EC50 (Kappa-type opioid receptor (OPRK1, Homo sapiens, UniProt P41145); cAMP, agonist, TR-FRET): 1.36 nM
C[C@H](NC(=O)CNC(=O)[C@@H](NC(=O)[C@H](Cc1ccccc1)NC(=O)CNC(=O)CNC[C@@H](N)Cc1ccccc1)[C@@H](C)O)C(=O)N[C@@H](CCCN=C(N)N)C(=O)N[C@@H](CCCCN)C(=O)N[C@@H](CO)C(=O)N[C@@H](C)C(=O)N[C@@H](CCCN=C(N)N)C(=O)N[C@@H](CCCCN)C(N)=O — EC50 (Nociceptin receptor, with G protein (OPRL1, Homo sapiens, UniProt P41146); agonist): 3.55 nM

A few entries again:
CC[C@H](C)[C@@H]1NC(=O)[C@H]([C@@H](C)O)NC(=O)[C@H](CCC(=O)O)NC(=O)[C@H](CO)NC(=O)[C@H](Cc2ccc(O)cc2)NC(=O)[C@@H]2CSSC[C@@H]3NC(=O)[C@H]([C@@H](C)CC)NC(=O)[C@@H]4CCCN4C(=O)[C@H](Cc4c[nH]c5ccccc45)NC(=O)[C@H](CCC(=O)O)NC(=O)[C@@H]4CSSC[C@H](NC(=O)[C@H]([C@@H](C)O)NC(=O)[C@H](CCC(=O)O)NC(=O)CNC(=O)[C@H](CSSC[C@H](NC(=O)CNC1=O)C(=O)N[C@@H]([C@@H](C)O)C(=O)N4)NC(=O)[C@@H]1CCCN1C(=O)[C@H](CC(C)C)NC(=O)[C@@H]1CCCN1C(=O)[C@H](CC(=O)O)NC(=O)CNC(=O)[C@H](CC(N)=O)NC(=O)[C@H](CCCCN)NC(=O)[C@H]([C@@H](C)O)NC3=O)C(=O)N[C@@H](Cc1ccccc1)C(=O)N[C@@H]([C@@H](C)O)C(=O)NCC(=O)N[C@@H](CCCCN)C(=O)N2 — EC50 (Cannabinoid receptor 2 (CNR2, Homo sapiens, UniProt P34972); cAMP, agonist, TR-FRET): 8000 nM and 7800 nM
